Measured values gathered from unrelated publications.
Each line is one published result; not all experiments were run side by side. ± gives the spread as reported.
ABO G235S/G268A/L266M/R176G: Histo-blood group ABO system transferase (ABO, Homo sapiens, UniProt P16442, G235S/G268A/L266M/R176G)
T1: pre-miR-21 RNA (Homo sapiens); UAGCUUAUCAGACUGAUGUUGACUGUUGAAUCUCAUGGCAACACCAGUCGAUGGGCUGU

Under “plasma membrane association”, `CC1=C(/C=C/C(=O)N2CCN(C(N)=O)CC2)C(C)(C)CCC1` is recorded as “increased” (Rhodopsin (RHO, Homo sapiens, UniProt P08100, T17M); pharmacological chaperone, confocal microscopy; T-REx-293 expressing T17M opsin; concentration not given; reference: DMSO).
`CCNC(=O)[C@H]1O[C@@H](n2cnc3c(Nc4ccc(I)cc4)ncnc32)[C@H](O)[C@@H]1O` gave a kon of 190000 ± 30000 M⁻¹ s⁻¹ (ADORA3 (Homo sapiens, UniProt P0DMS8); kinetic radioligand binding; 10 °C, no GTP, with: [3H]PSB-11).
`Cc1cc(C#CC2(O)CCCCC2)cc2c1cc(C(=O)O)n2-c1cccc(Cl)c1` has a ΔH of -42.1 ± 6.1 kJ/mol (Microphthalmia-associated transcription factor, residues 1-296 (Homo sapiens, UniProt O75030); binding, isothermal titration calorimetry; 25 °C).
For `Cc1cc([C@H](C(=O)N2C[C@H](O)C[C@H]2C(=O)N[C@@H](CC(=O)N2CCC(N3CCC(C#Cc4ccc(C(=O)N[C@H]5C(C)(C)[C@H](Oc6ccc(C#N)c(Cl)c6)C5(C)C)cc4)CC3)CC2)c2ccc(-c3scnc3C)cc2)C(C)C)on1`, protein level read “no effect” (NR3C1 (Homo sapiens, UniProt P04150); degrader, western blot; T47D; 0.01 to 1000 nM, 24 h).
`CSCC[C@H](NC(=O)[C@H](CO)NC(=O)[C@@H](NC(=O)[C@H](CCC(N)=O)NC(=O)[C@@H](CCCNC(=N)N)NC(=O)[C@@H](CCCNC(=N)N)NC(=O)[C@@H](CCCCN)NC(=O)[C@@H](CCCNC(=N)N)NC(C)=O)[C@@H](C)O)C(=O)N[C@H](C(=O)N[C@@H](CC(=O)O)C(=O)N[C@@H](Cc1ccccc1)C(=O)N[C@@H](Cc1ccc(O)cc1)C(=O)N[C@@H](Cc1c[nH]cn1)C(=O)N[C@@H](CO)C(=O)N[C@H](CCCCN)C(=O)N[C@H](CCCNC(=N)N)C(=O)N[C@H](CCCNC(=N)N)C(N)=O)[C@@H](C)O` — result for “entropic term −TΔS”: 53 ± 4 kJ/mol (PCNA (Homo sapiens, UniProt P12004); binding, isothermal titration calorimetry; pH 7.4, 25 °C, 200 mM NaCl, with: p21 peptide).
`Nc1nc(SCc2ccc(Cl)cc2)nn1S(=O)(=O)c1ccc2c(c1)CCO2` has a fold activation of 2.3 fold (LYPLAL1 (Homo sapiens, UniProt Q5VWZ2); activator, gel-based ABPP FP-rhodamine; concentration not given; reference: DMSO).
The dissociation half-time of `CCCCCCOc1ccc(C(=O)OCC[N+]2(C)CC=CCC2)cc1` (centres unmarked) is reported as 4.1 ± 0.3 h (CHRM3 (Homo sapiens, UniProt P20309); recovery of [3H]NMS binding after washing; membranes; 100 µM).
The enrichment factor of `NC(=O)C1CCNC(=O)C(CCCNC(=O)c2cnccn2)NC(=O)C(Cc2ccco2)NC(=O)C(CC2CC2)NC(=O)C=CC(=O)N1` (centres unmarked) is reported as 2.8 (MAPKAPK2 (Homo sapiens, UniProt P49137); DNA-templated library selection; one selection round).
For `C=CCCCCCCO[C@@H]1O[C@H](CO)[C@@H](O)[C@H](O[C@@H]2O[C@H](CO)[C@H](O)[C@H](O)[C@H]2O[C@@H]2O[C@@H](C)[C@@H](O)[C@@H](O)[C@@H]2O)[C@H]1NC(C)=O`, the kon was under 23000 M⁻¹ s⁻¹ (ABO G235S/G268A/L266M/R176G; methyl-TROSY NMR titration lineshape; two-state binding model, with: acceptor binding, saturating UDP).
Under “relative binding affinity”, `CCC(=C(c1ccc(O)cc1)c1ccc(OCCN(C)CCOCCOCCOCCOCCOCCOCCOCCN(C)CCOc2ccc(C(=C(CC)c3ccccc3)c3ccc(O)cc3)cc2)cc1)c1ccccc1` (mixture of isomers) is recorded as 9.48 ± 1.4% (ESR2 (Homo sapiens, UniProt Q92731); radioligand competition binding; concentration not given, Z-E/E isomer form, with: [3H]estradiol tracer; reference: estradiol).
`Cn1c(-c2ccccc2)ccc1-c1nc(-c2ncc(Br)cn2)no1` gave a remaining binding of 61 ± 12% (Programmed cell death 1 ligand 1, with PD-1 (CD274, Homo sapiens, UniProt Q9NZQ7); PD-1/PD-L1 binding, inhibitor, TR-FRET; 5 µM, room temperature; reference: no inhibitor).
`O=C([O-])CN(CCN(CC(=O)[O-])Cc1cc(CCC(=O)NCCCCCC(=O)NCCCC[C@H](NC(=O)N[C@@H](CCC(=O)O)C(=O)O)C(=O)O)ccc1O)Cc1cc(CCC(=O)O)ccc1[O-].[68Ga+3]` — result for “mean tumour-to-background ratio”: 45.8 (FOLH1 (Homo sapiens, UniProt Q04609); PET/CT; prostate cancer patients, bone metastases; 60 min; reference: lesion SUVmax over muscle SUVmean).
`CC(=C(c1ccc(Cl)cc1)c1ccc(OCCCN(C)C)cc1)c1ccc(Cl)cc1` gave a fold activation of 1.95 ± 0.19 fold (Estrogen receptor (ESR1, Homo sapiens, UniProt P03372); reporter gene, agonist, yeast estrogen screen; 1 µM; reference: DMSO).
For `CN(C)CCCCOc1ccc2cc(CN)ccc2c1`, the Km was 78 ± 8.5 nM (Primary amine oxidase, liver isozyme (Bos taurus, UniProt Q29437); substrate, fluorescence; pH 7.2, 30 °C).
The SUVR of `[123I]c1ccc2nc(-c3ccc(-n4ccnn4)nc3)cn2c1` is reported as 0.78 ± 0.05 (Amyloid-beta precursor protein, amyloid-beta (APP, Homo sapiens, UniProt P05067); SPECT; healthy controls, anterior cingulate; 120 to 210 min; reference: cerebellum).
`CC(C)[C@H](NC(=O)[C@@H]1CCCN1C(=O)[C@H](CCCCN)NC(=O)[C@H](Cc1ccccc1)NC(=O)[C@H](Cc1ccccc1)NC(=O)[C@H](CC(=O)O)NC(=O)[C@H](CCC(=O)O)NC(=O)[C@H](Cc1ccc(O)cc1)NC(=O)[C@H](CC(=O)O)NC(=O)[C@H](CCC(=O)O)NC(=O)[C@H](CC(=O)O)NC(=O)[C@H](CCC(=O)O)NC(=O)[C@@H](N)Cc1ccc(O)cc1)C(=O)N[C@H](C(=O)N[C@@H](CSSC[C@H](NC(=O)[C@@H](NC(=O)[C@@H](NC(=O)[C@@H]1CCCN1C(=O)[C@H](CCCCN)NC(=O)[C@H](Cc1ccccc1)NC(=O)[C@H](Cc1ccccc1)NC(=O)[C@H](CC(=O)O)NC(=O)[C@H](CCC(=O)O)NC(=O)[C@H](Cc1ccc(O)cc1)NC(=O)[C@H](CC(=O)O)NC(=O)[C@H](CCC(=O)O)NC(=O)[C@H](CC(=O)O)NC(=O)[C@H](CCC(=O)O)NC(=O)[C@@H](N)Cc1ccc(O)cc1)C(C)C)[C@@H](C)O)C(=O)N[C@@H](Cc1ccc(O)cc1)C(=O)N[C@@H](Cc1ccccc1)C(N)=O)C(=O)N[C@@H](Cc1ccc(O)cc1)C(=O)N[C@@H](Cc1ccccc1)C(N)=O)[C@@H](C)O` gave a binding stoichiometry of 0.776 ± 0.024 (C-C motif chemokine 8 (CCL8, Homo sapiens, UniProt P80075); isothermal titration calorimetry; concentration not given).
`CNc1ccccc1C(=O)O[C@H]1C[C@H](n2cnc3c(N)ncnc32)O[C@@H]1COP(=O)(O)OP(=O)(O)O`: “dissociation rate constant” 8.8 ± 0.6 s⁻¹ (Unconventional myosin-Va (Gallus gallus, UniProt Q02440, D297C/G292C/I296C/S293C/V295G); stopped-flow FRET, linear fit intercept; 25 °C, with: MgCl2 10 mM).
With `C/C(=N\OCCN1CCCCC1)c1cccc(C(F)(F)F)c1` the Ki ratio was 1 (rat sigma-1 receptor; binding; with: phenytoin 250 µM; reference: without over with phenytoin).
`CCc1cc2c(Nc3cn[nH]c3)ncnc2s1` has a protein occupancy of 68.6% (MAPK10 (Homo sapiens, UniProt P53779); native mass spectrometry; 100 µM).
`CN1CCN(c2ccc(-c3ccc4[nH]c(-c5ccc(OCCCC(=O)NCCCN=[N+]=[N-])cc5)nc4c3)cc2)CC1` has an IC50 of over 50 µM (T1, pre-miR-21 RNA (Homo sapiens); RNase L cleavage, competitor, RNase L cleavage assay; with: RIBOTAC TGP-21-C1-3).
The β-sheet content of `CCCNCC(=O)O` is reported as 15.3% (Albumin (ALB, Homo sapiens, UniProt P02768); circular dichroism; 0.6 mM).
With `NC1CC=C(c2cc3c(Nc4cc5ncsc5cc4F)ncnc3s2)CC1` (centres unmarked) the remaining activity was 110 ± 5% (RIPK1 (Homo sapiens, UniProt Q13546); kinase activity; 1 µM; reference: control).
With `C=CCCCCCCO[C@@H]1O[C@H](CO)[C@H](O)[C@H](O[C@@H]2O[C@H](CO)[C@H](O)[C@H](O)[C@H]2O[C@@H]2O[C@@H](C)[C@@H](O)[C@@H](O)[C@@H]2O)[C@H]1O` the koff was 2600 ± 200 s⁻¹ (ABO G235S/G268A/L266M/R176G; methyl-TROSY NMR titration lineshape analysis; apo enzyme).
`O=C1C=CC2(c3coc4cc(O)ccc4c3=O)c3cc(-c4coc5cc(O)ccc5c4=O)ccc3OC2C1` (centres unmarked) has a Hill coefficient of 0.946 (PRXC1A (Armoracia rusticana, UniProt P00433); substrate, Hill kinetic model; product formation, with: hydrogen peroxide NG).
For `O=c1[nH]cnc2c(CN3C[C@H](O)[C@@H](O)C3)c[nH]c12`, “binding free energy” read -10 ± 0.04 kcal/mol (PNP (Homo sapiens, UniProt P00491); first subunit).
With `O=C(Nc1cccc(C(=O)Nc2ccc(S(=O)(=O)O)c3cc(S(=O)(=O)O)cc(S(=O)(=O)O)c23)c1)Nc1cccc(C(=O)Nc2ccc(S(=O)(=O)O)c3cc(S(=O)(=O)O)cc(S(=O)(=O)O)c23)c1` the Hill slope was 1.2 ± 0.5 (Neutrophil elastase (ELANE, Homo sapiens, UniProt P08246); enzyme activity, inhibitor, chromogenic substrate hydrolysis; pH 7.4, 37 °C, 100 mM NaCl, with: substrate S-1384).
With `Nc1cccc2c1[nH]c(=O)n2C1CCN(C(=O)Nc2ccc(I)cc2)CC1` the thermal shift was 5.5 K (OGG1 (Homo sapiens, UniProt O15527); differential scanning fluorimetry; higher = stabilisation).
`CCCCOc1ccc(C(=O)OCC[N+]2(C)CC=CCC2)cc1` (centres unmarked) gave a dissociation half-time of 0.4 ± 0.1 h (CHRM1 (Homo sapiens, UniProt P11229); recovery of [3H]NMS binding after washing; membranes; 100 µM).
`COc1cc(C2CC(=O)Nc3nc(N)[nH]c(=O)c32)ccc1O` (centres unmarked) gave a ΔG of -7.65 kcal/mol (uncharacterized protein (Leishmania donovani, UniProt A0A3Q8IA09); competitive ITC; with: glutamate 60 µM).
`C[C@H](CCC(=O)N[C@@H](CCC(=O)Nc1ccc(O)cc1)C(=O)O)[C@H]1CC[C@H]2[C@@H]3[C@H](O)C[C@@H]4C[C@H](O)CC[C@]4(C)[C@H]3CC[C@]12C` has a Jmax of 0.437 (SLC10A2 (Homo sapiens, UniProt Q12908); transport, substrate; ASBT-MDCK cells; unit not given; reference: taurocholate Jmax).
For `CN1CCN(CC(=O)N2N=C3/C(=C/c4ccccc4)CCCC3C2c2ccccc2)CC1` (mixture of isomers), the enzyme activity was 78% (ALOX5 (Homo sapiens, UniProt P09917); activator; 10 µM, with: arachidonic acid 10 µM; reference: activator 0 µM).
For `CNCC=C(C)C=CC=CC=CC1=C(C)CCCC1(C)C`, “mature over immature ratio” read about 1.6 (Rhodopsin (RHO, Homo sapiens, UniProt P08100, P23H); immunoblot; 661W rod opsin P23H; 2.5 µM; reference: mature over immature).

Some of these lines once more:
The dissociation half-time of `CCCCCCOc1ccc(C(=O)OCC[N+]2(C)CC=CCC2)cc1` (centres unmarked) is reported as 4.1 ± 0.3 h (CHRM3 (Homo sapiens, UniProt P20309); recovery of [3H]NMS binding after washing; membranes; 100 µM).
The enrichment factor of `NC(=O)C1CCNC(=O)C(CCCNC(=O)c2cnccn2)NC(=O)C(Cc2ccco2)NC(=O)C(CC2CC2)NC(=O)C=CC(=O)N1` (centres unmarked) is reported as 2.8 (MAPKAPK2 (Homo sapiens, UniProt P49137); DNA-templated library selection; one selection round).
For `C=CCCCCCCO[C@@H]1O[C@H](CO)[C@@H](O)[C@H](O[C@@H]2O[C@H](CO)[C@H](O)[C@H](O)[C@H]2O[C@@H]2O[C@@H](C)[C@@H](O)[C@@H](O)[C@@H]2O)[C@H]1NC(C)=O`, the kon was under 23000 M⁻¹ s⁻¹ (ABO G235S/G268A/L266M/R176G; methyl-TROSY NMR titration lineshape; two-state binding model, with: acceptor binding, saturating UDP).
